Measured values from different studies.
Each numbered part is a random draw from the data of one study; scales do not carry over between parts.
Chain of UniProt P11802 (whole entry, looked up): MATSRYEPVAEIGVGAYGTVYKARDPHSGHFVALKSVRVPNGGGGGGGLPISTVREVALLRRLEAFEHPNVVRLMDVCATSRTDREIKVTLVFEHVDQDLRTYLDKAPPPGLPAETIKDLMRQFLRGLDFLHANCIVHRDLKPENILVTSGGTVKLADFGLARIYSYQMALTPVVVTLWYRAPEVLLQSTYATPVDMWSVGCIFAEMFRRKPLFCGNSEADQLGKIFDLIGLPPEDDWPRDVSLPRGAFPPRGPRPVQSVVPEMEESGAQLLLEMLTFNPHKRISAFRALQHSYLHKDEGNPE
Chain of UniProt Q9UIK4 (whole entry, looked up): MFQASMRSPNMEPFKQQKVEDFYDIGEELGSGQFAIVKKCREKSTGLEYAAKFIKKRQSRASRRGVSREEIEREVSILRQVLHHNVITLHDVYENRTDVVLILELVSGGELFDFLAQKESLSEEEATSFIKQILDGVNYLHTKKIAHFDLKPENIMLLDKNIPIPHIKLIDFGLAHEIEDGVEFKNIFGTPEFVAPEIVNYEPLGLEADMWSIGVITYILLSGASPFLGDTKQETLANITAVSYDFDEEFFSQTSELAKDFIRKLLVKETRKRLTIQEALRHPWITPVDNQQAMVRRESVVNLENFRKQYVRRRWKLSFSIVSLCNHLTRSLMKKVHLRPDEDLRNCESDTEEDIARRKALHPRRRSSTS
Chain of UniProt P36897 (whole entry, looked up): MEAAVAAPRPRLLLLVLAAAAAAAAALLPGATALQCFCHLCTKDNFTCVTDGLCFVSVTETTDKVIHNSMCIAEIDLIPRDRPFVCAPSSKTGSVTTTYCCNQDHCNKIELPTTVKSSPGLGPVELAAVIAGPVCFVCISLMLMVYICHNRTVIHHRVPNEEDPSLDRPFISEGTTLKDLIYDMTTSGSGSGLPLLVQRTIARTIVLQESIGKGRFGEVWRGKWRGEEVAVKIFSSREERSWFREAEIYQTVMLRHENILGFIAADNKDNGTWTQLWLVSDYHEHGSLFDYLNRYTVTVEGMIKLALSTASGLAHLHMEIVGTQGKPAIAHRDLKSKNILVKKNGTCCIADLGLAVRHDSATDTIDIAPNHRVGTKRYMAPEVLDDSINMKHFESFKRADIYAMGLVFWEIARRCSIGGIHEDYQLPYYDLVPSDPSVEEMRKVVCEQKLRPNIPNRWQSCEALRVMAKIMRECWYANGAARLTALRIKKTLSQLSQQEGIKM
Chain of UniProt Q15831 (whole entry, looked up): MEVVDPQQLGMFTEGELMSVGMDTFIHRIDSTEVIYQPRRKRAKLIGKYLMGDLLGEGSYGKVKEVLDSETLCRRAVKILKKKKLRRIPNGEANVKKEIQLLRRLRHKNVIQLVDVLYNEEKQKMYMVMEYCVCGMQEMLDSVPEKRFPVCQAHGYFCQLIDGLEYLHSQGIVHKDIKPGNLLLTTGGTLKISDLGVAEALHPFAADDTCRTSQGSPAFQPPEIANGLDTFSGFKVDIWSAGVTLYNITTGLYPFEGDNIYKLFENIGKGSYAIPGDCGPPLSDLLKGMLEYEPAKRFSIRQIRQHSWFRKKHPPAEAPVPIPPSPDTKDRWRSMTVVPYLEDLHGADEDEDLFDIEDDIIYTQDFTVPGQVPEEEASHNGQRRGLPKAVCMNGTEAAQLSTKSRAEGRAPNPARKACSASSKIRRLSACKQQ
Chain of UniProt P41595 (whole entry, looked up): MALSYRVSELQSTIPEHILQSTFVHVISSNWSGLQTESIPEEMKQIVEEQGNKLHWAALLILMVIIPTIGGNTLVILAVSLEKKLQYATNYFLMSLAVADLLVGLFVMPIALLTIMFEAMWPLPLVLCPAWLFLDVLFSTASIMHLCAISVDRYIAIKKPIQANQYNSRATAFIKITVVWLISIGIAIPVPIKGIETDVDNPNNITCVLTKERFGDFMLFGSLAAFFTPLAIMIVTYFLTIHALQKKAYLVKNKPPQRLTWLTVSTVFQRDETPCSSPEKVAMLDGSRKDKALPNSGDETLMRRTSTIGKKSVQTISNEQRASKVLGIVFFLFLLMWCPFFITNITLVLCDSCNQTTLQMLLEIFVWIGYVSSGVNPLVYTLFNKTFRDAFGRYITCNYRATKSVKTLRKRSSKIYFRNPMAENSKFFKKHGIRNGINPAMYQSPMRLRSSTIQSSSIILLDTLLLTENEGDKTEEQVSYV
Chain of UniProt P35626 (whole entry, looked up): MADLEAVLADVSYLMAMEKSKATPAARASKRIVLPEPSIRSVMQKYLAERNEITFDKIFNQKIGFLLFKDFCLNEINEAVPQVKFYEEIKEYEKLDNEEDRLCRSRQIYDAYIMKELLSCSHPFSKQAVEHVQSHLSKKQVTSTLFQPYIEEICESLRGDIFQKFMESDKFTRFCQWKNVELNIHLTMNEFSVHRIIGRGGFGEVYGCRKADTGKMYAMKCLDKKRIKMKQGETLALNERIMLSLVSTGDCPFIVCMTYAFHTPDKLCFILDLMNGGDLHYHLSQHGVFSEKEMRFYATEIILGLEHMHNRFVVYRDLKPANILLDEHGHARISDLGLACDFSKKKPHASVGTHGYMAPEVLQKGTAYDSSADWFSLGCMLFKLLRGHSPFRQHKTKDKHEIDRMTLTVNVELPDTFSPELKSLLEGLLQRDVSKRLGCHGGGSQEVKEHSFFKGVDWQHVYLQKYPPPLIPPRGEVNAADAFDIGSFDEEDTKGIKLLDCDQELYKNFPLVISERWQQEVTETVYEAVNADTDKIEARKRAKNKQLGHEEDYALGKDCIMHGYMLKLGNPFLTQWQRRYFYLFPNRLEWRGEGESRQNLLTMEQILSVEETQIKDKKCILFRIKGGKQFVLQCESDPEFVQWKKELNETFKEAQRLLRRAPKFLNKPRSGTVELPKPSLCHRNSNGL
Chain of UniProt Q13557 (whole entry, looked up): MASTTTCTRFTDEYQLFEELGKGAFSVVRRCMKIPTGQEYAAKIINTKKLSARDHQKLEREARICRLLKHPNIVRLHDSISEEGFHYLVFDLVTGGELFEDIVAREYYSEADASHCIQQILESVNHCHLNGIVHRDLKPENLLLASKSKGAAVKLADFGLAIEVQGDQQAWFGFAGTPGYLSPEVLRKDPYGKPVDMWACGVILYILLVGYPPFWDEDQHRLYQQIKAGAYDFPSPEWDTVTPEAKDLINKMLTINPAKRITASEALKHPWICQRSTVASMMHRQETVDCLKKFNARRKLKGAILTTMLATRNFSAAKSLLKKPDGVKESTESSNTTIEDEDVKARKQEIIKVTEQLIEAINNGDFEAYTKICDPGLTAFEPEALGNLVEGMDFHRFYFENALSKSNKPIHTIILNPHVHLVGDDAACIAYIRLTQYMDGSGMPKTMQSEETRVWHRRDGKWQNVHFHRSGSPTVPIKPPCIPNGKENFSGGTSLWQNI
Chain of UniProt Q99759 (whole entry, looked up): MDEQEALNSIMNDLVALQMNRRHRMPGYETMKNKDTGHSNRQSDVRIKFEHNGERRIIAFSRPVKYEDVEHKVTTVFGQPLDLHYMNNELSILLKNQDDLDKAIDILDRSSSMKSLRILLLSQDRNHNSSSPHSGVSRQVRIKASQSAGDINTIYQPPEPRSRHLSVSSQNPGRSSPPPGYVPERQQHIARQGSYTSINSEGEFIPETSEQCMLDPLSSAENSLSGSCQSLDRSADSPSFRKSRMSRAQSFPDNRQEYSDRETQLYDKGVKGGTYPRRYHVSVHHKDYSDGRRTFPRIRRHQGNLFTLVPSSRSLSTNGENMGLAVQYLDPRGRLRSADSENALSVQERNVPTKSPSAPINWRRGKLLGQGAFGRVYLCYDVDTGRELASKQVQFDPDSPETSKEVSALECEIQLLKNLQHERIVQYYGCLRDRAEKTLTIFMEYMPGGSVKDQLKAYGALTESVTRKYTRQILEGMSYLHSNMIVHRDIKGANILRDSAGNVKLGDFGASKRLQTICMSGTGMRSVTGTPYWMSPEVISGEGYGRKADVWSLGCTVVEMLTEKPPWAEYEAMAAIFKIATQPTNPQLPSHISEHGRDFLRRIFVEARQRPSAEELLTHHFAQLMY
Chain of UniProt P45984 (whole entry, looked up): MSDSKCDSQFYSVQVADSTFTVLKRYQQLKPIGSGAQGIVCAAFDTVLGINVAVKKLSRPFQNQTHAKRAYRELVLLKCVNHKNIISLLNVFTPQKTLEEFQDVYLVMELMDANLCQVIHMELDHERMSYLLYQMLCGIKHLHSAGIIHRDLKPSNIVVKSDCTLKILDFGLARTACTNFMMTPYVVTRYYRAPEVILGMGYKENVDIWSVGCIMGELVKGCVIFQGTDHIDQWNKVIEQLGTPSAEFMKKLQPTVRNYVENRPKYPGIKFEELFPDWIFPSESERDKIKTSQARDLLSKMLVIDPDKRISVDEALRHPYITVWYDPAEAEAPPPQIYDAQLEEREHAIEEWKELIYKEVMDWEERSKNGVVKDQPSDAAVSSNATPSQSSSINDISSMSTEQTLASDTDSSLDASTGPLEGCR

Block 1 — host: mouse; sample: microsomes or S9; tested at: 2 µM; time: 0.5 h
Structure (SMILES)	remaining compound [%]
N#Cc1nccnc1OC1CCN(C(=O)c2ccc(N3CCOCC3)cc2)C1 (stereo not drawn)	73.9
CCn1nc(C)cc1S(=O)(=O)NC1CCOC2(CCOCC2)C1 (stereo not drawn)	20.7
Cc1nn(C)c2c1N(C(=O)OC(C)(C)C)CC(C)N2C(=O)c1cc(Cl)cc(Cl)c1 (stereo not drawn)	0.359
O=S(=O)(CCC1Cc2ccccc2C1)N1CCN(c2cccc(O)c2)CC1	3.59
COc1ccc(OC)c2c1s/c(=N\C(=O)C(C)C)n2C	0
Cc1ccc(CC2S/C(=N/N=C/c3ccncc3)N(Cc3ccco3)C2=O)cc1C (stereo not drawn)	10.9
c1cc2ccn(-c3ccc4ccnc(N5CCOCC5)c4c3)c2cn1	1.48
O=C(C1CCCC1)N1CCn2c(nnc2-c2ccccc2)C1	2.52
c1ccc(-c2ncc(CNc3cccc(-c4nnc[nH]4)c3)s2)nc1	49.3
O=C(CN1C(=O)CCC1=O)N1CC(S(=O)(=O)C2CCCCC2)C1	62.5
Cc1ccc(C(=O)NNc2ccccn2)c(Nc2ccc3cn[nH]c3c2)n1	5.3
CS(=O)(=O)c1ccc(Oc2cc(F)cc(C(=O)O)c2)c2c1[C@H](O)C(F)(F)C2	79.5
COc1ccc(Cl)c(OC)c1C1=NOC(C)(C(=O)Nc2ccccn2)C1 (stereo not drawn)	0.754

Block 2 — cell line: HaCaT; tested at: 100 µM; time: 36 h
Compound	viability [%]
NC(=O)NO	89.6
CC(=O)Nc1ncc([N+](=O)[O-])s1	112
CCCCCCCCCCCCCCCCCCCCCCO	96
CCOC(=O)[N-]c1cn(N2CCOCC2)n[o+]1	90.6
CC[C@H](C)C(=O)O[C@H]1CCC=C2C=C[C@H](C)[C@H](CC[C@@H]3C[C@@H](O)CC(=O)O3)[C@H]21	6.18
NC(=O)c1cnccn1	99
CSCC1CN(/N=C/c2ccc([N+](=O)[O-])o2)C(=O)O1 (stereo not drawn)	9.48
N=C(N)NC(=O)Cc1c(Cl)cccc1Cl	91.5
CCC[C@H](N[C@@H](C)C(=O)N1[C@H](C(=O)O)C[C@@H]2CCCC[C@@H]21)C(=O)O	100
CCCCCCCC(=O)N[C@H](CN1CCCC1)[C@H](O)c1ccc2c(c1)OCCO2	12.8
NC(=O)NS(=O)(=O)c1ccc(N)cc1	90.3

Block 3 — Compound: COc1ccc(Cl)cc1NC(=O)Nc1cc(C)nc2ccccc12; observed: enzyme activity; mode: inhibitor; tested at: 0.5 µM; baseline: control
target	remaining activity
STK10 (Homo sapiens, UniProt O94804)	90.9%
Cyclin-dependent kinase 4, with cyclin D1 (CDK4, Homo sapiens, UniProt P11802)	98.8%
Protein kinase C beta type, isoform beta-I (PRKCB, Homo sapiens, UniProt P05771)	105%
IKBKE (Homo sapiens, UniProt Q14164)	107%
STK39 (Homo sapiens, UniProt Q9UEW8)	98.5%
TGFBR2 (Homo sapiens, UniProt P37173)	111%
NEK2 (Homo sapiens, UniProt P51955)	106%
MAPK9 (Homo sapiens, UniProt P45984)	105%
OXSR1 (Homo sapiens, UniProt O95747)	101%
Tyrosine-protein kinase Lyn, isoform B (LYN, Homo sapiens, UniProt P07948)	99.2%
cGMP-dependent protein kinase 1, isoform beta (PRKG1, Homo sapiens, UniProt Q13976)	108%
PRKACA (Homo sapiens, UniProt P17612)	101%
GRK3 (Homo sapiens, UniProt P35626)	103%
STK11 (Homo sapiens, UniProt Q15831)	103%
DAPK1 (Homo sapiens, UniProt P53355)	93.3%
PRKCA (Homo sapiens, UniProt P17252)	132%
MAP3K3 (Homo sapiens, UniProt Q99759)	111%
TGFBR1 (Homo sapiens, UniProt P36897)	99.1%
CHEK2 (Homo sapiens, UniProt O96017)	101%
DAPK2 (Homo sapiens, UniProt Q9UIK4)	99.1%
CAMK2D (Homo sapiens, UniProt Q13557)	98.2%
CAMKK2 (Homo sapiens, UniProt Q96RR4)	93.2%
Cyclin-dependent kinase 5, with p25 (CDK5, Homo sapiens, UniProt Q00535)	105%

Single results of other studies
SMILES	target	assay	conditions	endpoint	result
O=C(Nc1cccnn1)N1CCC(=Cc2cccc(Oc3ccc(C(F)(F)F)cn3)c2)CC1	5-hydroxytryptamine receptor 2B (HTR2B, Homo sapiens, UniProt P41595)	binding, radioligand binding	10 µM	inhibition	55.7%
